Results gathered from unrelated publications.
Numbered parts are unrelated; each lists some results of a single study. “And” joins repeats or separate records; there may be more than shown.
Sequence of UniProt P23443 (whole entry, looked up): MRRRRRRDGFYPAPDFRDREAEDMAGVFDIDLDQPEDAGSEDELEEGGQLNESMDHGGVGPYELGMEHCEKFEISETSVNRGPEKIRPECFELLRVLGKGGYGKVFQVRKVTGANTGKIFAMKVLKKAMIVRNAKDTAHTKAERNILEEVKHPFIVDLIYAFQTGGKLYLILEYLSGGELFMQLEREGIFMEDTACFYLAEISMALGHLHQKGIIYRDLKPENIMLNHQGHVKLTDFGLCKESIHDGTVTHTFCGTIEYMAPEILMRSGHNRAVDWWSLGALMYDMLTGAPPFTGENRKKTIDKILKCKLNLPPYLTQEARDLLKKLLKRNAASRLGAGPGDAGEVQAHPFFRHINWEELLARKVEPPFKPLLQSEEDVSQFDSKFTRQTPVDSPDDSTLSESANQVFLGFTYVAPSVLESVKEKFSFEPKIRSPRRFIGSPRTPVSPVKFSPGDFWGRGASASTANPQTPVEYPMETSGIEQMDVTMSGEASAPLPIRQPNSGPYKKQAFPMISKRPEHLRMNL
Sequence of UniProt Q9NWZ3 (whole entry, looked up): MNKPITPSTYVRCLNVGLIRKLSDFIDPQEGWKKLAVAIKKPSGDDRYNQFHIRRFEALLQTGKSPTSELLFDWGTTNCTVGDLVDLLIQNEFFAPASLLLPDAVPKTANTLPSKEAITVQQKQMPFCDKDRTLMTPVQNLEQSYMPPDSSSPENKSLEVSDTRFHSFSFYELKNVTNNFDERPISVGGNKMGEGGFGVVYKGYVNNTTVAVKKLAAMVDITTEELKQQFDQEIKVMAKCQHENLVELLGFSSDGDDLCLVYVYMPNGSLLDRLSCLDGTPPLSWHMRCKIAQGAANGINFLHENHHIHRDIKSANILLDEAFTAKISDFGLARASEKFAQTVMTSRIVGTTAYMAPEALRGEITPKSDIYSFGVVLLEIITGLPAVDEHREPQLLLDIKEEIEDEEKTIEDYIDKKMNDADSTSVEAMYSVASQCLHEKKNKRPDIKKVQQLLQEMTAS
Sequence of UniProt P53778 (whole entry, looked up): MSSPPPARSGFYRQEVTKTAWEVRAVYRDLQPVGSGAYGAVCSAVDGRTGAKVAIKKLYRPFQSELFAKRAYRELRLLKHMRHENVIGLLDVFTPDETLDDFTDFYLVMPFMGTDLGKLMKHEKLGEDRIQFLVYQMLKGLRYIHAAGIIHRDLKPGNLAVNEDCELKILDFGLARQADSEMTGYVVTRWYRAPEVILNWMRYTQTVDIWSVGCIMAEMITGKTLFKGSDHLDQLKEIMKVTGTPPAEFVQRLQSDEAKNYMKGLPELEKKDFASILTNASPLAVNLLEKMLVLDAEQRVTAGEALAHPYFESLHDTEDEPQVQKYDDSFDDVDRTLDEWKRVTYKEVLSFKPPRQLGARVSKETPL

Set 1
Target: Activin receptor type-1 (ACVR1, Homo sapiens, UniProt Q04771)
Sequence of UniProt Q04771 (whole entry, looked up): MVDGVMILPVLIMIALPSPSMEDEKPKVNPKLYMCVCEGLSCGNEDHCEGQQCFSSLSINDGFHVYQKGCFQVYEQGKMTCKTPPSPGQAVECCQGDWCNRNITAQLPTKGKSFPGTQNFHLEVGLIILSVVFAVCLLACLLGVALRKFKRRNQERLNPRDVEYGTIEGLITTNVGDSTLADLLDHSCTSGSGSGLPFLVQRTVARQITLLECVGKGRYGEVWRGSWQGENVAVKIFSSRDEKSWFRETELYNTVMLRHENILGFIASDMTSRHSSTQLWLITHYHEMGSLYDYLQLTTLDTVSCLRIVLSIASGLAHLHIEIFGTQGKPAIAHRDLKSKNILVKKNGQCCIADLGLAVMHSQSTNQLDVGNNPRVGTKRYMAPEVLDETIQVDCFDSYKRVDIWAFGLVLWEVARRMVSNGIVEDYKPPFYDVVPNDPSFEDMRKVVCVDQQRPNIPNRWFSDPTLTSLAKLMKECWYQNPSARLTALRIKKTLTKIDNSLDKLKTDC
Effect on: enzyme activity
Mode: inhibitor
Concentration: 0.5 µM
Reference: control
The remaining activity of `Cc1cn(-c2cc(NC(=O)c3ccc(C)c(Nc4nccc(-c5cccnc5)n4)c3)cc(C(F)(F)F)c2)cn1` is reported as 112%.
`COc1cc2ncnc(Nc3ccc(O)c(Br)c3)c2cc1OC` has a remaining activity of 128%.
`O=C1c2ccccc2-c2n[nH]c3cccc1c23` has a remaining activity of 134%.
With `N#C/C(=C\c1ccc(O)c(O)c1)C(=O)NCc1ccccc1` the remaining activity was 91.3%.
For `COc1cc2c(cc1OC)-c1[nH]nc(Nc3cccc(F)c3)c1C2`, the remaining activity was 107%.
The remaining activity of `Cn1nc2c3c(cccc31)C(=O)c1ccccc1-2` is reported as 110%.
`c1ccc(-c2[nH]ncc2-c2ccnc3ccccc23)nc1` gave a remaining activity of 106%.
For `CCN(CC)CCNC(=O)c1c(C)[nH]c(/C=C2\C(=O)Nc3ccc(Cl)cc32)c1C`, the remaining activity was 108%.
`C[C@@H]1CCN(C(=O)CC#N)C[C@@H]1N(C)c1ncnc2[nH]ccc12` gave a remaining activity of 104%.
For `O=c1cc(-c2cccc3c2Sc2ccccc2S3)oc(N2CCOCC2)c1`, the remaining activity was 97.5%.
`N#Cc1c(NC(=O)c2cccc3ccccc23)sc2c1CCCC2` has a remaining activity of 72.9%.
`CN(C)C[C@H]1CCn2c(c(C3=C(c4cn(C)c5ccccc45)C(=O)NC3=O)c3ccccc32)C1` gave a remaining activity of 93.3%.
The remaining activity of `O=C(Nc1cccc(Nc2nccc(Nc3cccc(C(F)(F)F)c3)n2)c1)C1CC1` is reported as 111%.
`Nc1cccc(-c2cc3c(Oc4cccc(O)c4)ncnc3[nH]2)c1` gave a remaining activity of 183%.
For `CCN(CC)CCNC(=O)c1c(C)[nH]c(/C=C2\C(=O)Nc3ccc(F)cc32)c1C`, the remaining activity was 121%.
For `c1ccc(-c2cnc(Nc3ccc(OCCN4CCCC4)cc3)s2)cc1`, the remaining activity was 164%.
With `O=C1C(Cl)=C(N2C(=O)CCC2=O)C(=O)c2ccccc21` the remaining activity was 96.9%.
The remaining activity of `O=C(NC(NC(=S)Nc1ccc(F)c([N+](=O)[O-])c1)C(Cl)(Cl)Cl)C(c1ccccc1)c1ccccc1` (centres unmarked) is reported as 98.8%.
The remaining activity of `CCN(CC)C(=O)c1ccc(Nc2nc(OCC3CCCCC3)c3[nH]cnc3n2)cc1` is reported as 98.8%.
`Ic1cccc(CSc2nnc(-c3ccncc3)o2)c1` has a remaining activity of 97.4%.
`CN([C@@H](Cc1ccc(OS(=O)(=O)c2cccc3cnccc23)cc1)C(=O)N1CCN(c2ccccc2)CC1)S(=O)(=O)c1cccc2cnccc12` has a remaining activity of 95%.
With `Cc1nc2cc3nc(-c4cccs4)cnc3cc2n1C` the remaining activity was 99.3%.
`COc1cc2ncnc(Nc3cccc(Cl)c3)c2cc1OC` has a remaining activity of 108%.
`Cc1cc2ncc(-c3ccccc3)nc2cc1C` has a remaining activity of 91.8%.
The remaining activity of `CCOc1nc(NC(=O)Cc2cc(OC)ccc2OC)cc(N)c1C#N` is reported as 95.2%.

Set 2
Target: Calcium/calmodulin-dependent protein kinase type II subunit alpha (CAMK2A, Homo sapiens, UniProt Q9UQM7)
Sequence of UniProt Q9UQM7 (whole entry, looked up): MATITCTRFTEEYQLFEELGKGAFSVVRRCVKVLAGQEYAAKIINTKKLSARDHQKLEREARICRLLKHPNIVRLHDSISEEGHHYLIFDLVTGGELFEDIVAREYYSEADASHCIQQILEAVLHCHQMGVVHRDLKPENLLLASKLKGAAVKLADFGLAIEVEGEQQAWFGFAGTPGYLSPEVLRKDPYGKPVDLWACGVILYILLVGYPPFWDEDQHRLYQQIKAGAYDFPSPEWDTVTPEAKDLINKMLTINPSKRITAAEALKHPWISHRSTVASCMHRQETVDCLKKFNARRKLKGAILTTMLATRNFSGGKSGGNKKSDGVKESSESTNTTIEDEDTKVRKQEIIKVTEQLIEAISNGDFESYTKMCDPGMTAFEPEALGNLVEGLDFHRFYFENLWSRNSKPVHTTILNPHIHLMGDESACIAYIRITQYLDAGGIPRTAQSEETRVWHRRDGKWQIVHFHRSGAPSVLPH
Effect on: enzyme activity
Mode: inhibitor
Concentration: 10 µM
For `C=CCc1cc(OC)c(O[C@@H](C)[C@H](O)c2ccc(O)c(OC)c2)c(OC)c1`, the inhibition was -16%.
The inhibition of `N#C[C@@H]1C[C@@H]2C[C@@H]2N1C(=O)[C@@H](N)C12CC3CC(CC(O)(C3)C1)C2` is reported as 4%.
`CC(C)c1cc2c(c(O)c1O)[C@@]13CCCC(C)(C)[C@@H]1C[C@@H]2OC3=O` has an inhibition of -4%.
The inhibition of `CC1=CC(=O)CC(C)(C)C1=O` is reported as 3%.
`CC1=C(C(=O)O)N2C(=O)[C@@H](NC(=O)[C@H](N)C3=CCC=CC3)[C@H]2SC1` has an inhibition of -8%.
`Nc1ncnc2c1ncn2[C@H]1C[C@H](O)[C@@H](COP(=O)(O)O)O1` gave an inhibition of 45%.
With `COc1nccnc1CC(C)C` the inhibition was 36%.
For `CC(C)[C@@H](C)/C=C/[C@@H](C)[C@H]1CC[C@H]2C3=CC=C4C[C@@H](O)CC[C@@]4(C)[C@@H]3CC[C@]12C`, the inhibition was -6%.
With `CNCC(O)c1ccc(OC(=O)C(C)(C)C)c(OC(=O)C(C)(C)C)c1` (centres unmarked) the inhibition was -5%.
`CN1Cc2c(Cl)cc(Cl)cc2[C@H](c2cccc(S(=O)(=O)NCCOCCOCCNC(=O)NCCCCNC(=O)NCCOCCOCCNS(=O)(=O)c3cccc([C@@H]4CN(C)Cc5c(Cl)cc(Cl)cc54)c3)c2)C1` has an inhibition of -5%.
The inhibition of `O[C@H]1[C@H]2c3cc4c(cc3CN3CCC(=C[C@@H]1O)[C@H]23)OCO4` is reported as -3%.
The inhibition of `CC(=O)O[C@@]1(C)C[C@@H](O)[C@]2(O)C=CO[C@@H](O[C@@H]3O[C@H](CO)[C@@H](O)[C@H](O)[C@H]3O)[C@@H]21` is reported as -41%.
The inhibition of `CCCCCCCCOc1ccccc1C(=O)Nc1ccc(C(=O)OCC[N+](C)(CC)CC)cc1` is reported as -8%.
With `O=C(O)CCCCC(=O)O` the inhibition was -22%.
With `Cc1c(C)c2c(c(C)c1O)CC[C@@](C)(CCC[C@H](C)CCC[C@H](C)CCCC(C)C)O2` (racemic) the inhibition was -0.07%.
With `Cc1cc2nc3c(=O)[nH]c(=O)nc-3n(C[C@H](O)[C@H](O)[C@H](O)COP(=O)(O)O)c2cc1C` the inhibition was 15%.
`O=C1C2CC3CC1CC(O)(C3)C2` has an inhibition of -8%.

Set 3
Target: DNA polymerase theta, ATPase domain (POLQ, Homo sapiens, UniProt O75417)
Sequence of UniProt O75417 (whole entry, unmodified, looked up): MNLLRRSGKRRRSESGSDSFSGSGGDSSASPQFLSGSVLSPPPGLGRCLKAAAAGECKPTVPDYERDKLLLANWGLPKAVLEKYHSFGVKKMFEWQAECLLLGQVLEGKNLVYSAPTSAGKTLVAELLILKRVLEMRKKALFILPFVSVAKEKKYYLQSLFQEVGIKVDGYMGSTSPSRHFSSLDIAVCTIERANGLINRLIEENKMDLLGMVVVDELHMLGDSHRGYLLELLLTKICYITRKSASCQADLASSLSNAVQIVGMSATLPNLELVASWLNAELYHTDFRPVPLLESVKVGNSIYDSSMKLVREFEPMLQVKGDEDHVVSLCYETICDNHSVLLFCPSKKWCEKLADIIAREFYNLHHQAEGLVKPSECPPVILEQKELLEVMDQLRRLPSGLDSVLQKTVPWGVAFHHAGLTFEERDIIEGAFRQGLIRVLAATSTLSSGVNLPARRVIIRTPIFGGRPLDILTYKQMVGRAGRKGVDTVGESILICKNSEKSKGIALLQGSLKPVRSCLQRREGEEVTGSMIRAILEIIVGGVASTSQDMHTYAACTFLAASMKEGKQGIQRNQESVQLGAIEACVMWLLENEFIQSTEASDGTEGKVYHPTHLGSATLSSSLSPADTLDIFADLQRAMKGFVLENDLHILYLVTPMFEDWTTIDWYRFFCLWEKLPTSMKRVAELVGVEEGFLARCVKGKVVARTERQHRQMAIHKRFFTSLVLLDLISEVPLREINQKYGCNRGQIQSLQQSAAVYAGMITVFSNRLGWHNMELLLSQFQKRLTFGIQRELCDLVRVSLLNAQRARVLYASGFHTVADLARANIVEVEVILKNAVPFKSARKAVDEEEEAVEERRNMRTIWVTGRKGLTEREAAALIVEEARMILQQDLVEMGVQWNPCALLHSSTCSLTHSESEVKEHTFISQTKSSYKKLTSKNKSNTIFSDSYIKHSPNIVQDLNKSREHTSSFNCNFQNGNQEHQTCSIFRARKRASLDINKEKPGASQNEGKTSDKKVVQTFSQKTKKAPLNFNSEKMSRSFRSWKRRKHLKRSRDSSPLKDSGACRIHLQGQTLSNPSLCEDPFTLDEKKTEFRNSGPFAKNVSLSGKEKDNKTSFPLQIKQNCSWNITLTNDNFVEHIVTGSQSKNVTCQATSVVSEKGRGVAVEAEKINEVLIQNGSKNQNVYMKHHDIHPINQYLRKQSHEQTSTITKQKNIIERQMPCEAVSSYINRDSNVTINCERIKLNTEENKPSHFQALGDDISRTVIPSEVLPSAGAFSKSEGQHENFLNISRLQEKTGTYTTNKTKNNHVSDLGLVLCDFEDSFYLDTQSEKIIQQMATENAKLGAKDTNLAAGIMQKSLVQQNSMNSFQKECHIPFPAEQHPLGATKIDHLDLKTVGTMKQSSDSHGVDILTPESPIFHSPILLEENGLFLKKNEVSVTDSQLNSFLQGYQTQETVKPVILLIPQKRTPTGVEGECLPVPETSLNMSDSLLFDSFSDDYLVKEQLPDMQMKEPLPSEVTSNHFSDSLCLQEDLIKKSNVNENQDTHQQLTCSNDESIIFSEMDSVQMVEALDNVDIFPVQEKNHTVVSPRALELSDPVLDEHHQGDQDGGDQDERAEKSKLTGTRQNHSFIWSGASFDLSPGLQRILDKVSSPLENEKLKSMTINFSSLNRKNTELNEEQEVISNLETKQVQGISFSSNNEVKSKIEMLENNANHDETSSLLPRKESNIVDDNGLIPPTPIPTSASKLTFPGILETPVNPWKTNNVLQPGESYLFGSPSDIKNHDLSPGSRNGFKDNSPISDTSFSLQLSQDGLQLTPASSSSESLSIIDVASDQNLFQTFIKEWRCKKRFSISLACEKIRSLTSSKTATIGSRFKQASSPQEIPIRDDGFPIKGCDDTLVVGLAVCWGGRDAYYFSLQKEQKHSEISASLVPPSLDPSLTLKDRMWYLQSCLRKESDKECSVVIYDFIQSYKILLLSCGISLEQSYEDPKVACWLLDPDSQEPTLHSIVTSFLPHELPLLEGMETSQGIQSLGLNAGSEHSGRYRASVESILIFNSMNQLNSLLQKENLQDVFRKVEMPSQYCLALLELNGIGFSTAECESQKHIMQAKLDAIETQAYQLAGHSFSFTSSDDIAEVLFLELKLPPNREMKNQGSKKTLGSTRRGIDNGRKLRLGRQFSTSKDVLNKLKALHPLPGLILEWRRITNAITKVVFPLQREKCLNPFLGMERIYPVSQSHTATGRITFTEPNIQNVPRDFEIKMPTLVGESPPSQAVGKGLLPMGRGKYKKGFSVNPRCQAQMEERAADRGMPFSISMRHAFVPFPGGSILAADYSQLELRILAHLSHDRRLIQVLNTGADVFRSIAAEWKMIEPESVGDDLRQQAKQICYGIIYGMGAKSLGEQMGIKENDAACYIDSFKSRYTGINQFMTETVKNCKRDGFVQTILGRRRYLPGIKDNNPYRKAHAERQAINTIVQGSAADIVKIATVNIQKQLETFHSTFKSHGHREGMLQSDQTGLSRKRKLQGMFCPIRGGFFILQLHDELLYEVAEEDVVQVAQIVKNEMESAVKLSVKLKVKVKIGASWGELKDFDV
Effect on: enzyme activity
Mode: inhibitor
Concentration: 77 µM
Reference: untreated
The remaining activity of `Nc1ccc(-c2nc3ccc(-c4nc5ccc(N)cc5[nH]4)cc3[nH]2)cc1` is reported as 129%.
`Cc1c(C(=O)Nc2ccc(N3C[C@@H](C)O[C@@H](C)C3)nc2)cccc1-c1ccc(OC(F)(F)F)cc1` gave a remaining activity of 98.4%.
`COCC(=O)NC/C=C/c1ccc2ncnc(Nc3ccc(Oc4ccc(C)nc4)c(C)c3)c2c1` gave a remaining activity of 105% and 104% and 106%.
`CCCCCCCC/C=C\CCCCCCCC(=O)NCCO` gave a remaining activity of 98.5%.
`O=C(NC(NC(=S)Nc1ccc(F)c([N+](=O)[O-])c1)C(Cl)(Cl)Cl)C(c1ccccc1)c1ccccc1` (centres unmarked) has a remaining activity of 98.5%.
With `c1ccc(CNc2ncnc3nc[nH]c23)cc1` the remaining activity was 97.2%.
With `O=C(O)CCCc1c[nH]c2ccccc12` the remaining activity was 98.1%.
The remaining activity of `Nc1ncnc2c1C(=O)N(c1ccc([C@H]3CC[C@H](CC(=O)O)CC3)cc1)CCO2` is reported as 92.5%.
With `COc1cc2c(Oc3ccc(NC(=O)C4(C(=O)Nc5ccc(F)cc5)CC4)cc3F)ccnc2cc1OCCCN1CCOCC1` the remaining activity was 96.6%.
With `CC1(C)O[C@@H]2C[C@H]3[C@@H]4C[C@H](F)C5=CC(=O)CC[C@]5(C)[C@H]4[C@@H](O)C[C@]3(C)[C@]2(C(=O)CO)O1` the remaining activity was 97.3%.
With `N[C@@H](CS(=O)O)C(=O)O` the remaining activity was 98.4%.
For `Cc1ccc2c(=O)c3cccc(CC(=O)O)c3oc2c1C`, the remaining activity was 92.8%.
`OC(CN1CCN(c2cccc(Cl)c2)CC1)C(c1ccccc1)c1ccccc1` (centres unmarked) gave a remaining activity of 93.8%.

Set 4
SMILES: FC(F)(F)c1ccc2c(c1)nc(-c1cccnc1)n2C1CC1
Effect on: cell-free assay
Method: competition with immobilised ligand
Concentration: 1 µM
Serine/threonine-protein kinase MARK2 (MARK2, Homo sapiens, UniProt Q7KZI7) — remaining binding: 100%.
It gave 100% for remaining binding (Serine/threonine-protein kinase OSR1 (OXSR1, Homo sapiens, UniProt O95747)).
For Serine/threonine-protein kinase TBK1 (TBK1, Homo sapiens, UniProt Q9UHD2): remaining binding read 82%.
The remaining binding was 100% (Interleukin-1 receptor-associated kinase 4 (IRAK4, Homo sapiens, UniProt Q9NWZ3)).
Receptor tyrosine-protein kinase erbB-2 (ERBB2, Homo sapiens, UniProt P04626) — remaining binding: 100%.
It gave 100% for remaining binding (Mitogen-activated protein kinase 12 (MAPK12, Homo sapiens, UniProt P53778)).
For Epidermal growth factor receptor (EGFR, Homo sapiens, UniProt P00533): remaining binding read 86%.
For MAP/microtubule affinity-regulating kinase 3 (MARK3, Homo sapiens, UniProt P27448): remaining binding read 100%.
It gave 100% for remaining binding (Ribosomal protein S6 kinase beta-1 (RPS6KB1, Homo sapiens, UniProt P23443)).
For Tyrosine-protein kinase JAK1, JH1 (JAK1, Homo sapiens, UniProt P23458): remaining binding read 100%.
The remaining binding was 100% (Tyrosine-protein kinase CSK (CSK, Homo sapiens, UniProt P41240)).
It gave 100% for remaining binding (Serine/threonine-protein kinase PAK 3 (PAK3, Homo sapiens, UniProt O75914)).
Mitogen-activated protein kinase 14 (MAPK14, Homo sapiens, UniProt Q16539) — remaining binding: 99%.
The remaining binding was 100% (Proto-oncogene tyrosine-protein kinase ROS (ROS1, Homo sapiens, UniProt P08922)).
Serine/threonine-protein kinase WNK2 (WNK2, Homo sapiens, UniProt Q9Y3S1) — remaining binding: 100%.
For Dual specificity protein kinase CLK3 (CLK3, Homo sapiens, UniProt P49761): remaining binding read 100%.
Serine/threonine-protein kinase mTOR (MTOR, Homo sapiens, UniProt P42345) — remaining binding: 80%.
For Mitogen-activated protein kinase kinase kinase 13 (MAP3K13, Homo sapiens, UniProt O43283): remaining binding read 100%.
It gave 100% for remaining binding (Serine/threonine-protein kinase PAK 4 (PAK4, Homo sapiens, UniProt O96013)).
Serine/threonine-protein kinase D2 (PRKD2, Homo sapiens, UniProt Q9BZL6) — remaining binding: 100%.
For Serine/threonine-protein kinase PAK 6 (PAK6, Homo sapiens, UniProt Q9NQU5): remaining binding read 100%.
The remaining binding was 100% (Mitogen-activated protein kinase kinase kinase 9 (MAP3K9, Homo sapiens, UniProt P80192)).
The remaining binding was 100% (Ephrin type-A receptor 3 (EPHA3, Homo sapiens, UniProt P29320)).
Non-receptor tyrosine-protein kinase TYK2, JH2 (TYK2, Homo sapiens, UniProt P29597) — remaining binding: 100%.
The remaining binding was 100% (Fibroblast growth factor receptor 3 (FGFR3, Homo sapiens, UniProt P22607, G697C)).
